Published values pooled from the literature.
Each line is one published result; not all experiments were run side by side. ± marks the error that the study gave.
Cell line: K562

SMILES | read-out | technique | concentration | time | together with | quantity | value
C[C@H]1[C@H](OC(=O)CCC(=O)O)O[C@@H]2O[C@@]3(C)CC[C@H]4[C@H](C)CC[C@@H]1[C@@]24OO3 | cell growth or viability | resazurin | 10 µM | 48 h |  | inhibition | 49.2%
N.N.[Cl][Pt][Cl] | cell growth or viability | resazurin |  |  |  | IC50 | 18.5 µM
COc1cccc2c1C(=O)c1c(O)c3c(c(O)c1C2=O)C[C@@](O)(C(=O)CO)C[C@@H]3O[C@H]1C[C@H](N)[C@H](O)[C@H](C)O1 |  | CellTiter-Blue | 10 µM | 48 h |  | growth inhibition | 78%
CC[C@@]1(O)C(=O)OCc2c1cc1n(c2=O)Cc2cc3ccccc3nc2-1 | cell growth or viability | MTT |  | 48 h |  | IC50 | 0.08 µM
COc1cc(C(=O)c2oc3ccccc3c2N)cc(OC)c1OC | cell growth or viability |  |  |  |  | IC50 | 8.29 µM
CCCCCCCCCC(=O)N[C@@H](Cc1ccccc1)C(=O)N[C@H](C(=O)NCC(=O)N[C@H](C(=O)N[C@@H](CC(C)C)C(=O)N[C@H](C(=O)N1CCC[C@H]1C(=O)N[C@@H](CC(C)C)C(=O)N[C@@H](C)C(=O)N[C@@H](CC(C)C)C(=O)NCC(=O)N[C@@H](C)C(=O)N[C@@H](CC(C)C)C(=O)N[C@H](C(=O)N[C@@H](CCCCN)C(=O)N[C@@H](CC(C)C)C(=O)N[C@@H](Cc1ccccc1)C(=O)N[C@@H](CCCCN)C(N)=O)[C@@H](C)O)[C@@H](C)CC)[C@@H](C)O)[C@@H](C)CC | cell growth or viability | CCK-8 |  | 24 h |  | IC50 | 5.76 µM
N.N.[Cl][Pt][Cl] | cell growth or viability | MTT |  | 72 h |  | IC50 | 9.7 µM
CC(C)C[C@H](NC(=O)[C@H](CCCCN)NC(=O)[C@H](CS)NC(=O)[C@H](CC(C)C)NC(=O)[C@@H](NC(=O)[C@@H](NC(=O)[C@H](CO)NC(=O)[C@H](Cc1ccccc1)NC(=O)[C@@H]1CCCN1C(=O)[C@H](Cc1c[nH]c2ccccc12)NC(=O)[C@H](Cc1c[nH]cn1)NC(=O)[C@H](CC(=O)O)NC(=O)CNC(=O)[C@H](CCCNC(=N)N)NC(=O)[C@H](C)NC(=O)[C@@H](N)Cc1ccc(O)cc1)[C@@H](C)O)C(C)C)C(=O)N[C@H](C(=O)N[C@@H](CCCNC(=N)N)C(=O)O)C(C)C | cell adhesion |  |  | 15 min preincubation | P2Y2 93-110 peptide beads | IC50 | 30 ± 15 µM
COc1cc(C(=O)c2oc3c(OC)cccc3c2N)cc(OC)c1OC | cell growth or viability |  |  |  |  | IC50 | 0.725 µM

Repeated from above:
SMILES | read-out | technique | concentration | time | together with | quantity | value
CC[C@@]1(O)C(=O)OCc2c1cc1n(c2=O)Cc2cc3ccccc3nc2-1 | cell growth or viability | MTT |  | 48 h |  | IC50 | 0.08 µM
